# Measured values gathered from unrelated publications.
# Each line is one published result; not all experiments were run side by side. “And” joins repeats or separate records; there may be more than shown. ± gives the spread as reported.
SMILES,cell line,assay,system,setting,scale,quantity,result
C=CC1=C(C)c2cc3[n-]c(cc4nc(cc5[n-]c(cc1n2)c(C)c5C=C)C(C)=C4CCC(=O)O)c(CCC(=O)O)c3C.[Zn+2],SH-SY5Y,"RNA-seq, measured: SH3TC1 mRNA",,"5 µM, 5 h",relative to: untreated cells,fold change,1.72
Cc1ccc2c(c1)C(=O)[C@]1(O)CCN(c3ccc4nc(C)ccc4c3)C1=N2.Cl,murine Trp53-/- Pten-/- cells,measured: SRC and ERK1/2,,concentration not given,relative to: untreated,phosphorylation,2 to 3 fold
Cc1cnc(NC2CCOCC2)nc1-n1cnc(C(=O)NC(CN)c2cc(F)cc(Cl)c2)c1 (stereo not drawn),Rec1,flow cytometry,,"1 µM, 48 h",,S phase cells,19.1%
CCn1cc(-c2cc(Cn3ccoc3=N)cc3c2CCN([C@@H](C)c2cc(OC)ccn2)C3=O)c(C(F)(F)F)n1,Raji,"cell growth, inhibitor",,120 h,,EC50,11.7 µM
O=C1CC[C@H](N2Cc3cc(N4CCN(CC5CCN(c6ccc([C@@H]7c8ccc(O)cc8CC[C@@H]7c7ccccc7)cc6)CC5)CC4)ccc3C2=O)C(=O)N1,T47D expressing ESR1 Y537S,"cell growth, CellTiter-Glo",,120 h,,GI50,0.008 µM
NC(=O)NOCCCCCCCCCC[P+](c1ccccc1)(c1ccccc1)c1ccccc1.O=C([O-])C(F)(F)F,HCT-116,"cell growth, live-cell imaging",,"20 µM, control at 90% confluence",,cell confluence,3.45%
CC(C)n1nc(-c2cc3cc(O)ccc3[nH]2)c2c(N)ncnc21,hiPSC-derived cardiomyocytes (iCell),impedance (xCELLigence Cardio),,"concentration not given, 2 h",relative to: control,beat amplitude,109%
O=C(Nc1nnc2n3c(nc(-c4ccc(Cl)cc4)c1-2)SCC3=O)c1ccccc1,NCI-H322M,SRB,,"10 µM, NCI60 single-dose screen",relative to: untreated,cell growth,98.9%
O=[N+]([O-])c1cc(Br)c(O)c(C=NNc2ccc(C(F)(F)F)cc2)c1,HCT-116,cell cycle analysis,,"IC50, 24 h",,cells in G2/M phase,37.1%
C=Cc1c2[n-]c(c1C)/C=c1\[n-]/c(c(C)c1C=C)=C\c1[n-]c(c(CCC(=O)O)c1C)/C=c1\[n-]c(c(C)c1CCC(=O)O)=C2.[Sn+4],SH-SY5Y,"RNA-seq, measured: FOSL1 mRNA",,"5 µM, 5 h",relative to: untreated cells,fold change,2.98
Cc1nn(-c2nc3ccc(Cl)c(Cl)c3[nH]2)c(O)c1C1OC(=O)c2ccccc21 (stereo not drawn),RAW-ISG,RT-qPCR,,"10 µM, unit not given, with: poly(I:C)",relative to: DMSO,IFNB1 mRNA level,0.871 and 0.809 and 0.41
Cc1ccc(-n2c(=O)[nH]cc(C(=O)N3CCc4ccccc43)c2=O)cc1C,BV-2,measured: caspase-8,,"30 nM, with: high glucose",relative to: high glucose,protein level,decreased
C=Cc1c(C)c2cc3nc(c(CC(=O)O)c4[nH]c(cc5nc(cc1[nH]2)C(C)=C5CC)c(C)c4C(=O)O)[C@@H](CCC(=O)O)[C@@H]3C,4T1,Annexin V-FITC/PI flow cytometry,,concentration not given,,early apoptotic cells,19.9% and 19.8% and 24.3%
COc1cc(/C=C/C(=O)N2CCC=CC2=O)cc(OC)c1OC,MDA-MB-468 cells,"quantitative RT-PCR, measured: cyclin D1",,"30 µM, 6 h",relative to: time zero,mRNA level,74.2 ± 12.6%
CC(C)c1ccc(C2C(C#N)=C3N=C(N)c4ccccc4N3C3=C2C(=O)CCC3)cc1 (stereo not drawn),BV-2,"phagocytosis, high-content imaging",,"geometric mean, with: pHrodo-myelin uptake",,EC50,20.8 µM
CC1=CC(=O)c2ccccc2C1=O,HuCC-A1,MTT,,,relative to: IC50 MRC-5 over IC50 HuCC-A1,selectivity index,0.98
Cc1ccc(NC(=O)c2ccc(CN3CCN(C)CC3)cc2)cc1Nc1nc(-c2cccnc2)cs1,hiPSC-derived cardiomyocytes (iCell),impedance,,"concentration not given, 24 h",relative to: control,cell index,99.8%
CCN(Cc1ccc(C)cc1)c1ccc(CO)c(Cl)c1,RBE,"cell viability, CellTiter-Glo",,,,IC50,0.37 µM
C[C@H](CCC(=O)NCCS(=O)(=O)O)[C@H]1CC[C@H]2[C@@H]3CC[C@@H]4C[C@H](O)CC[C@]4(C)[C@H]3CC[C@]12C,PCK rat cholangiocytes,,,20 µM,relative to: untreated,PCNA-positive nuclei,76%
COc1cc2ncnc(Nc3ccc(Oc4ccccc4)cc3C)c2cc1OC.O=C(O)C(F)(F)F,HepG2 (NRAS Q61L),resazurin,,"concentration not given, 72 h, with: trametinib",direction not given,Bliss synergy score,136%
Nc1ncnc2c1ncn2[C@@H]1O[C@H](CO)[C@@H](O)[C@H]1O,activated human T cells,,,100 nM,higher = more IFNγ,IFNγ production,355 a.u. and 382 a.u. and 472 a.u.
NC(=O)NO,HCT-116,"cell growth, live-cell imaging",,"10 µM, control at 90% confluence",,cell confluence,89.9 ± 7.19%
CCn1cc(-c2cc(Cn3ccnc3)cc3c2CCN([C@H](c2cc(OC)ccn2)C2CC2)C3=O)c(C(F)(F)F)n1,Caov-3,"cell growth, inhibitor",,120 h,,EC50,16.7 µM
CCn1c2ccc(CNCCOCCOCCOCCC(=O)NCCOc3ccc(CCc4nc5cc(-c6c(C)noc6C)ccc5n4CCN4CCOCC4)cc3F)cc2c2ccc(-c3cc(C)cs3)cc21,NCI-H1299 expressing p53 Y220C,RT-qPCR,,"3 µM, 24 h",relative to: DMSO,BAX mRNA level,no effect
Cn1cc(-c2ccc(-c3cncc(Cl)c3N3CCC4(CCNC4=O)CC3)cc2)cn1,COLO 205,"gene expression, microarray, measured: TCAF2 mRNA",,"concentration not given, 2 h",relative to: untreated cells,log2 fold change,2.62
Cc1cccc(-c2[nH]c(CNc3ccccc3F)nc2-c2ccc3ncnn3c2)n1,CD8+ T cells from myeloma patient,ELISA,human,"1 µM, 192 h",,IFN-gamma production,1.13% and 1.08% and 1.21% and 1.42%
OCc1ccc(-c2nn(Cc3ccccc3)c3ncccc23)o1,RBE,"cell viability, CellTiter-Glo",,,,IC50,15.3 µM
CC(C)NCC(O)c1ccc(O)c(O)c1 (stereo not drawn),mouse ventricular cardiomyocytes,,,"dose not given, 0.431 s",,sarcomere length,1.72 µm
CN1C(=O)C2(NN=C(c3ccccc3)S2)c2ccccc21 (stereo not drawn),H2373 and H2461 mesothelioma,MTT,,"10 µM, 24 h",,viability loss,60 to 80%
COc1cnc2cccc(N3CCc4c(cc(Cn5ccnc5C)cc4-c4cn(C)nc4C(F)(F)F)C3=O)c2c1,Caov-3,"cell growth, inhibitor",,120 h,,EC50,26.3 µM
COc1ccc(-n2nc(C(C)=O)s/c2=N\N=C(/C)c2ccc(NC(=O)c3ccccc3)cc2)cc1,MCF7,,,1.25 µM,,toxicity,97.3%
O=C(C[C@@H](C(F)F)n1ccc(F)n1)N1CCC(O)(Cn2cnc3c(cnn3-c3ccc(F)cc3)c2=O)CC1,CHP-212 parental,PI flow cytometry,,"1 µM, 24 h",,G1 phase cells,74.8%
O=P1(C2CCCCC2)CCCCC1,SW-620,ELISA,,"IC50, 72 h",,IL-6 level,2.1 ± 0.45 pg/mL
COc1cc(Oc2ccnc3cc(OC)c(OC)cc23)ccc1NC(=O)NC(C)c1nccs1 (stereo not drawn),hiPSC-derived cardiomyocytes (iCell),impedance (xCELLigence Cardio),,"concentration not given, 2 h",relative to: control,beat rate,96.2%
Nc1cccc2c1C(=O)N(C1CCC(=O)NC1=O)C2=O (stereo not drawn),bone marrow CD138+ myeloma cells,XTT,,"1.4 µM, mean of three patients",,viability,55%
O=C(/C=C/C=C/C=C/C1CCCCC1)NC1=C[C@@](O)(/C=C/C=C/C=C/C(=O)NC2=C(O)CCC2=O)[C@@H]2O[C@@H]2C1=O,NCI-H810,"cell growth, CellTiter-Glo",,78 h,,GI50,19.4 µM
CC/C(=N\NC(=O)NCc1cccc(O)c1)c1ccc(O)c(C)c1O,SK-OV-3,"Western blot, measured: TAZ",,"1 µM, 1 h, 3D culture, gellan gum, unit not given",relative to: β-actin,protein level,1.06 ± 0.43
OCc1ccc(-c2nn(Cc3ccccc3)c3cccc(Cl)c23)o1,RBE,"cell viability, CellTiter-Glo",,,,IC50,5.99 µM
CCc1cnc(N2CCC(c3nc(COc4ccc(-n5cnnn5)cc4)cs3)CC2)nc1,HEK293T,"RNA-seq, measured: HSP90AA1 mRNA",,"10 µM, 6 h",relative to: vehicle,log2 fold change,-0.192
COc1nc(NCc2cn(-c3ccc(C(=O)Nc4ccccc4)cc3)nn2)nc(OC)n1,HCT-116,annexin V-FITC/PI,,"IC50, 24 h",relative to: untreated,apoptotic cells,38.1 fold
Cc1ccccc1-n1nc(C)c(C(=O)Nc2ccc3ccccc3n2)c1C,Wnt-HEK293,"Wnt/β-catenin signalling, inhibitor, luciferase reporter",,1 µM,,inhibition,> 70%
NC(=O)NOCCCCCCCCCCCCCCCCCCCC[P+](c1ccccc1)(c1ccccc1)c1ccccc1.O=C([O-])C(F)(F)F,HCT-116,"cell growth, live-cell imaging",,"0.03 µM, control at 90% confluence",,cell confluence,92.7 ± 1.63%
OCc1ccc(-c2nn(CC3CCCCC3)c3ccccc23)o1,RBE,"cell viability, CellTiter-Glo",,,,IC50,16.3 µM
Cn1cc(Nc2nccc(-c3ccc4c(c3)CN(C3COC3)CC[C@H]4NC(=O)c3cn(C(C)(C)C)nn3)n2)cn1,human B cells,,,"100 nM, 64 h, non-stimulation-regulated genes, with: CD40L, anti-IgM, IL-4",,number of downregulated genes,70
Cn1c(Nc2nc3ccc(C(F)(F)F)cc3s2)nc2cc(C(=O)NCCOCCO)ccc21,SH-SY5Y,"RNA-seq, measured: PLK2 mRNA",,"5 µM, 5 h",relative to: untreated cells,fold change,2.12
OCc1ccc(-c2nn(Cc3ccc(Cl)cc3)c3ccccc23)o1,RBE,"cell viability, CellTiter-Glo",,,,IC50,1.58 µM
NC(=O)NOCCCCCCCCCCCCCC[P+](c1ccccc1)(c1ccccc1)c1ccccc1.O=C([O-])C(F)(F)F,HCT-116,"cell growth, live-cell imaging",,"10 µM, control at 90% confluence",,cell confluence,1.89%
C[C@H](Nc1ccc2c(c1)OCCn1cc(N3C(=O)OC[C@H]3C(F)F)nc1-2)C(N)=O,IM95,"growth rate inhibition, CellTiter-Glo",,120 h,,IC50,1.18 µM
CCN(CC)CCCC(C)Nc1ccnc2cc(Cl)ccc12 (stereo not drawn),hiPSC-derived cardiomyocytes,"If current, perforated patch clamp",,5 µM,relative to: initial current,fractional funny current,0.99 and 0.96
OCc1ccc(N2CCc3ccccc3C2)cc1Cl,RBE,"cell viability, CellTiter-Glo",,,,IC50,0.23 µM
NC(=O)NOCCCCCCCCCCCC[P+](c1ccccc1)(c1ccccc1)c1ccccc1.O=C([O-])C(F)(F)F,HCT-116,"cell growth, live-cell imaging",,"0.1 µM, control at 90% confluence",,cell confluence,91 ± 4.68%

# A few entries again:
SMILES,cell line,assay,system,setting,scale,quantity,result
C=Cc1c(C)c2cc3nc(c(CC(=O)O)c4[nH]c(cc5nc(cc1[nH]2)C(C)=C5CC)c(C)c4C(=O)O)[C@@H](CCC(=O)O)[C@@H]3C,4T1,Annexin V-FITC/PI flow cytometry,,concentration not given,,early apoptotic cells,19.9% and 19.8% and 24.3%
O=P1(C2CCCCC2)CCCCC1,SW-620,ELISA,,"IC50, 72 h",,IL-6 level,2.1 ± 0.45 pg/mL
Cc1nn(-c2nc3ccc(Cl)c(Cl)c3[nH]2)c(O)c1C1OC(=O)c2ccccc21 (stereo not drawn),RAW-ISG,RT-qPCR,,"10 µM, unit not given, with: poly(I:C)",relative to: DMSO,IFNB1 mRNA level,0.871 and 0.809 and 0.41
OCc1ccc(-c2nn(Cc3ccccc3)c3cccc(Cl)c23)o1,RBE,"cell viability, CellTiter-Glo",,,,IC50,5.99 µM
OCc1ccc(-c2nn(Cc3ccccc3)c3ncccc23)o1,RBE,"cell viability, CellTiter-Glo",,,,IC50,15.3 µM
